Measured values from different studies.
Every numbered part comes from another study and shows a few of its results, in no order. Substitutions count along the parent as printed.

Sample 1
Target: ABI1, truncated, D143A, DHFR fusion (Arabidopsis thaliana)
Technique: DHFR PCA, deep sequencing
Matrix: yeast
Notes: methotrexate growth selection, single substitutions
With: (+)-ABA 58 µM
Baseline: wild-type fitted maximum
Direction: higher = stronger binding
Measurement: relative binding score
Parent: PYL1, truncated, DHFR fusion (Arabidopsis thaliana); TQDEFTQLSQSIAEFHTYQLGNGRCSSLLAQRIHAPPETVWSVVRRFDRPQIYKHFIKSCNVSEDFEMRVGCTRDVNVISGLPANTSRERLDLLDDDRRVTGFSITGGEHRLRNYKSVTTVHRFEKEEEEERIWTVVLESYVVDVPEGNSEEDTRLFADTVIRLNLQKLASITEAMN; partner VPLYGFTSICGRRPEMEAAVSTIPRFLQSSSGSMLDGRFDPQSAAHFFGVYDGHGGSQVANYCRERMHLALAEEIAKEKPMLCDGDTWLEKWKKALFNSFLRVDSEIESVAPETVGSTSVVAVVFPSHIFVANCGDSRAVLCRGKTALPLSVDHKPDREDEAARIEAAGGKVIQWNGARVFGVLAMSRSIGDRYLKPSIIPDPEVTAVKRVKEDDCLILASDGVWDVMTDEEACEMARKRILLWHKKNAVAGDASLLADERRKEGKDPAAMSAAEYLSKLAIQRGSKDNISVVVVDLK
Variant = E38I; value = 32.7%
Variant = M176T; value = 82.2%
Variant = R98P; value = 14.5%
Variant = N177Q; value = 84.7%
Variant = V78N; value = 6.92%
Variant = V143C; value = 79.2%
Variant = L29M; value = 76.6%
Variant = G108R; value = 8.32%
Variant = E89H; value = 11%
Variant = I79F; value = 86%
Variant = L166E; value = -7.7%
Variant = T1C; value = 89%
Variant = E38Q; value = 75.1%
Variant = L93E; value = 77%
Variant = T1E; value = 89.1%
Variant = L169Y; value = -11.9%

Sample 2
Target: CCNF, cyclin fold, Cln2 fusion (human)
Technique: yeast growth competition, sequencing
Matrix: yeast
Notes: strong parent motif
Baseline: not given
Direction: higher = stronger binding
Measurement: normalised enrichment score
Parent: MICAL3 docking peptide (human); LQLRRQLSFSEDS
Variant = LQLRRQLSFTEDS [S10T]; value = 5.21
Variant = LQLYRQLSFSEDS [R4Y]; value = 2.1
Variant = LQLRRQLWFSEDS [S8W]; value = 7.8
Variant = LQLRRQLSFSTDS [E11T]; value = 5.48
Variant = LQLRRELSFSEDS [Q6E]; value = 3.3
Variant = LQLRRQESFSEDS [L7E]; value = -0.0913
Variant = LQLRIQLSFSEDS [R5I]; value = 0.392
Variant = LQLRRQLSRSEDS [F9R]; value = 0.551
Variant = LQWRRQLSFSEDS [L3W]; value = 3.43
Variant = LQLRRQLSFSERS [D12R]; value = 4.98
Variant = LQLRRQLSFSRDS [E11R]; value = 4.2
Variant = LQLRCQLSFSEDS [R5C]; value = 0.39
Variant = LQLRRQLSFSVDS [E11V]; value = 6
Variant = LQLRDQLSFSEDS [R5D]; value = 0.166
Variant = LCLRRQLSFSEDS [Q2C]; value = 5.39
Variant = LQLRRSLSFSEDS [Q6S]; value = 3.77
Variant = LQLRRQLMFSEDS [S8M]; value = 7.77
Variant = LQLRRQLSFSYDS [E11Y]; value = 6.1

Sample 3
Target: FOS, bZIP domain (human)
Technique: DHFR protein complementation
Matrix: yeast
Notes: single substitutions, most at no-binding floor
Baseline: wild-type JUN-FOS pair
Direction: higher = stronger binding
Measurement: binding fitness
Parent: JUN, bZIP domain (human); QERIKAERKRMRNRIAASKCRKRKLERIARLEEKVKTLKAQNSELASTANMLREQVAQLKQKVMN; partner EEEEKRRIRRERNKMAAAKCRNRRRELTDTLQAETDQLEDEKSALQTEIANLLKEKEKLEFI
Variant = A49H; value = -0.964 natural log
Variant = I28T; value = -0.169 natural log
Variant = A29I; value = -0.137 natural log
Variant = T37S; value = -0.0187 natural log
Variant = Q41A; value = -0.199 natural log
Variant = Q58H; value = -0.147 natural log
Variant = K36H; value = -0.153 natural log
Variant = A49I; value = -0.445 natural log
Variant = A57P; value = -1.3 natural log
Variant = L45K; value = -1.37 natural log
Variant = S47K; value = 0.132 natural log
Variant = V56F; value = -1.15 natural log
Variant = T48C; value = -0.206 natural log
Variant = N42I; value = 0.0293 natural log
Variant = L38A; value = -0.874 natural log
Variant = A40D; value = -0.114 natural log
Variant = L52S; value = -1.31 natural log
Variant = N42V; value = 0.182 natural log
Variant = N42S; value = -0.977 natural log

Sample 4
Target: Interferon regulatory factor 7, full length, phosphomimetic (IRF7, Homo sapiens, UniProt Q92985, residues 1-503, S471D/S472D/S475D/S476D/S477D/S483D/S484D/S487D)
UniProt Q92985, sequence (whole entry, unmodified, looked up): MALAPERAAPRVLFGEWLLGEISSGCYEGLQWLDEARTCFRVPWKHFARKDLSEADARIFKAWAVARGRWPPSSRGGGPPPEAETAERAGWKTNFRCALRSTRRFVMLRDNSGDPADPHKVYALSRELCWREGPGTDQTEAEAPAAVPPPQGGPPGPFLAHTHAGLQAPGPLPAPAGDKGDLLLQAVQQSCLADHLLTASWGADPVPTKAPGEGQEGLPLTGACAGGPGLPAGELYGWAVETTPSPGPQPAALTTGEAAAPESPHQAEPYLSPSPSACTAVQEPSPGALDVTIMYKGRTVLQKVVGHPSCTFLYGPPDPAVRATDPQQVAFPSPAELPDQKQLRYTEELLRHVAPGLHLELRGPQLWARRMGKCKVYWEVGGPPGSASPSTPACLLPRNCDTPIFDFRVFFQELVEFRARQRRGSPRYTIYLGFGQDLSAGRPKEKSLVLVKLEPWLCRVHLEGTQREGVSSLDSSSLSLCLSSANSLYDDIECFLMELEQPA
Technique: protein-binding microarray
Form: double-stranded DNA, one strand shown
Matrix: in vitro
Tested at: 2200 nM top
Notes: 60-bp whole probe
With: salmon DNA 0.4 mg/ml
Baseline: random background probes
Direction: higher = stronger binding
Measurement: fitted relative affinity
All sequences stand within: GCCTAGCAC … GTCTTGATTCGCTTGACGCTGCTG
Strand = GACGGTAGCGGTATCGGGACGTGCTAG; value = -0.384 z-score
Strand = CTAGGTCTCGGTTTCGGTTAGTGCTAG; value = 6.59 z-score
Strand = CTACTTCTCTTTTTGCTTTCGTGCTAG; value = 4.36 z-score
Strand = TGTGGGTTTCGGTGTGGGAGGTGCTAG; value = 2.39 z-score
Strand = ATTGCTTTCTCTTTCACTACGTGCTAG; value = 7.42 z-score
Strand = AGTGTCTCCATCAGAGGAGAGTGCTAG; value = -0.364 z-score
Strand = GCCACCGGTCTCCATGGGTCGTGCTAG; value = -0.0931 z-score
Strand = TTTTATATCTTATCCTATCAGTGCTAG; value = 1.44 z-score
Strand = TTACGACTGGGTTTCGGTTAGTGCTAG; value = 4.55 z-score
Strand = GACGGACTGGGGTTCCGGGACGTGCTA; value = -0.916 z-score
Strand = TCATTTTTTTCTTTAAAACTGTGCTAG; value = 1.31 z-score
Strand = TTAGATTTTTTTTCCTAATTGTGCTAG; value = 0.483 z-score
Strand = TTAGATATCGACTATCGGTTAGTGCTA; value = 0.395 z-score
Strand = GACGATTTCCTACTGCTGACGTGCTAG; value = 1.7 z-score
Strand = TCAACCCTCCCTCTGTAACTGTGCTAG; value = 1.46 z-score
Strand = TGAGATCTCAGTTTCGATTAGTGCTAG; value = 5.63 z-score
Strand = GACGGTTTCCATATCCTGACGTGCTAG; value = 3.59 z-score
Strand = TGAGATATCGGGACTGGATTAGTGCTA; value = -0.489 z-score
Strand = GATGATCTCAGTATCGAGACGTGCTAG; value = 0.208 z-score
Strand = TCAAGAGTAGCTTTCTGACTGTGCTAG; value = 0.171 z-score
Strand = TAAGGACTGCTTATCCTTTAGTGCTAG; value = 0.254 z-score
Strand = TTAGATTTAGGGTATCGATTAGTGCTA; value = -0.372 z-score
Strand = TTAGATTTCAGTTCCGGTTAGTGCTAG; value = 2.85 z-score
Strand = GACGAACTGAGAATGGAGACGTGCTAG; value = -0.0866 z-score
Strand = GACGGTTTAGGGACTGGGGACGTGCTA; value = -0.131 z-score

Sample 5
Target: Histone acetyltransferase KAT6A, both winged helices, GST fusion (KAT6A, Homo sapiens, UniProt Q92794, residues 1-181)
Technique: protein binding microarray
Form: double-stranded DNA, one strand shown
Matrix: in vitro
Tested at: not given
Notes: 8-mer, flanks averaged, mean of 2 arrays, mostly near background
Baseline: not given
Direction: higher = stronger binding
Measurement: E-score
Construct (chain): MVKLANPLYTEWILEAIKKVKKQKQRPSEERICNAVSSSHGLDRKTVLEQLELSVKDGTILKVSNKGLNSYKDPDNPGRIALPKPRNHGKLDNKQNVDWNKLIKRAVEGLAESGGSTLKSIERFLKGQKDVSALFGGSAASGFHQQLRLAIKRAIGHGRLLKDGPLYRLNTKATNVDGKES
Strand = CTTGGACA; value = -0.0993
Strand = ATAAGATA; value = -0.129
Strand = CCGCCGCG; value = 0.392
Strand = GGGAAAGA; value = -0.207
Strand = CCTATCAC; value = -0.0377
Strand = GGAAAATA; value = 0.0108
Strand = ACGCTGTG; value = 0.118
Strand = CAGATACG; value = 0.0433
Strand = AAGCTTTA; value = -0.0191
Strand = CCACCCTA; value = -0.201
Strand = GATGGTGC; value = -0.152
Strand = AAGCAGAG; value = -0.242
Strand = GACCGGCC; value = 0.122
Strand = CTCATTCC; value = 0.0129
Strand = ATAAGCAC; value = 0.0709
Strand = AAGTAGCT; value = -0.266
Strand = CATCCAAA; value = -0.213
Strand = CAAATATC; value = -0.0905
Strand = AATTCCGC; value = 0.145
Strand = GTCTGACA; value = 0.0568
Strand = AACCAAAA; value = -0.0845
Strand = AAGCGATA; value = 0.0919
Strand = ACCGGCTA; value = 0.121
Strand = AATATTTA; value = -0.0531

Sample 6
Target: Probable WRKY transcription factor 50, DNA-binding domain (WRKY50, Arabidopsis thaliana, UniProt Q8VWQ5, residues 99-173)
Technique: DNA-protein interaction ELISA
Form: double-stranded DNA, one strand shown
Matrix: in vitro, bacterial lysate
Tested at: not given
Notes: whole dsDNA probe, crude lysate protein
Baseline: highest signal in screen
Direction: higher = stronger binding
Measurement: relative absorbance
Target sequence (chain): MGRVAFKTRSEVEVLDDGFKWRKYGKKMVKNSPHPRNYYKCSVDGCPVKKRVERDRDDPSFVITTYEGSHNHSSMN
Strand = AAAAAATGCCCATGTGCACCCGTACGAAAA; value = 30.2 % of maximum
Strand = AAAAAAGGTTTAGCCCATGCCTGTGCAAAA; value = 27.7 % of maximum
Strand = AAAAAACCAGTCTACACCGCTGTAGGAAAA; value = 15.2 % of maximum
Strand = AAAAAATCCTTTTCTCTTTCTGTTTCAAAA; value = 47.7 % of maximum
Strand = AAAAAATCATTTTATTTTGCCTTTCTAAAA; value = 14.8 % of maximum
Strand = AAAAAACTGTCTGTCCTATATCACTTAAAA; value = 18.3 % of maximum
Strand = AAAAAAAACAAAACCTCCTAATAGCGAAAA; value = 22.7 % of maximum
Strand = AAAAAAGGGCGAGCGCTGGATCCACAAAA; value = 19 % of maximum
Strand = AAAAAAACCCGGCCGCCATGGTAGTAAAAA; value = 18.1 % of maximum
Strand = AAAAAAAGGGTGCTATTCGTCGACACAAAA; value = 30.7 % of maximum
Strand = AAAAAAAGTTTGACCTTGGCGTTCGTAAAA; value = 100 % of maximum
Strand = AAAAAAGGGCCCACTATCGACGTCAAAA; value = 25.7 % of maximum
Strand = AAAAAACAGTTCGATGTCACCCCCGCAAAA; value = 12.7 % of maximum
Strand = AAAAAAACTTCTGTCCCTGTTCCCGTAAAA; value = 39.4 % of maximum
Strand = AAAAAAATGGTGCCGCTGAGCAAATTAAAA; value = 9.43 % of maximum
Strand = AAAAAACACTCACACCTATACGGCTCAAAA; value = 20.2 % of maximum
Strand = AAAAAAGGCGTCTGACTGTAACTCGTAAAA; value = 45.3 % of maximum
Strand = AAAAAAGGGTATACTCGCAGCCCCTAAAAA; value = 9.14 % of maximum

Excerpt of the above (sample 1):
Variant = E38I; value = 32.7%
Variant = M176T; value = 82.2%
Variant = R98P; value = 14.5%
Variant = N177Q; value = 84.7%
Variant = V78N; value = 6.92%
Variant = V143C; value = 79.2%
Variant = L29M; value = 76.6%
Variant = G108R; value = 8.32%
Variant = E89H; value = 11%
Variant = I79F; value = 86%
Variant = L166E; value = -7.7%
Variant = T1C; value = 89%
Variant = E38Q; value = 75.1%
Variant = L93E; value = 77%
Variant = T1E; value = 89.1%
Variant = L169Y; value = -11.9%
